Experimental data collected from several papers.
Each line is one published result; not all experiments were run side by side. ± gives the spread as reported.

| Structure (SMILES) | assay | test system | conditions | scale | quantity | result |
| --- | --- | --- | --- | --- | --- | --- |
| Cn1ncc(-c2nc(N[C@H]3CC[C@H](N)CC3)ncc2Cl)c1CC1CC1 | phase I dose escalation | human patients | dose not given, grade 3-4 TEAE | relative to: patients | alanine aminotransferase increase incidence | 3% |
| Cc1c(COC(=O)[C@@H]2[C@H](/C=C(\Cl)C(F)(F)F)C2(C)C)cccc1-c1ccccc1 (racemic) | item: CYP3A4 | human, age 1 year, recombinant human CYP3A4 | 0.1 µM |  | enzyme contribution to clearance | 16.3% |
| CC(C)(c1ccccc1)c1cc(-n2nc3ccccc3n2)c(O)c(C(C)(C)c2ccccc2)c1 | exposure assessment | human, age 1-2 years | spray sunscreen |  | mean daily dermal uptake | 15 ng/kg body weight/day |
| COC[C@@H](CC(C)C)NC(=O)c1ccc(C)c(C)c1 |  | Hsd:ICR (CD-1) mouse, female, bone marrow | oral, 2000 mg/kg, 48 h |  | micronucleated PCE per 1000 PCE | 0.2 |
| COc1cc2c(Oc3ccc4[nH]c(C)cc4c3F)ccnc2cc1OCC1(N)CC1 |  | paediatric recurrent refractory sarcoma | 8 mg |  | grade 1 or 2 Leukopenia | 0% |
| CC(C)C[C@H](NC(=O)[C@H](CCCCN)NC(=O)OCC1c2ccccc2-c2ccccc21)C(=O)N[C@H](C(=O)N[C@@H](Cc1ccccc1)C(=O)N[C@@H](Cc1ccccc1)C(=O)N[C@@H](CCCCN)C(=O)NCC(=O)N[C@@H](Cc1ccccc1)C(=O)N[C@@H](C)C(=O)N[C@@H](Cc1c[nH]c2ccccc12)C(=O)N[C@@H](CC(N)=O)C(=O)N[C@H](C(=O)N[C@H]1CSSC[C@@H](C(=O)N[C@@H](Cc2c[nH]cn2)C(=O)N[C@@H](CCCNC(=N)N)C(=O)N[C@@H](CCCNC(=N)N)C(=O)N[C@@H](C)C(=O)N[C@@H](CC(N)=O)C(N)=O)NC(=O)[C@H](C(C)C)NC(=O)[C@H](CCCNC(=N)N)NC(=O)[C@H](C(C)C)NC(=O)CNC(=O)[C@H](CC(N)=O)NC(=O)[C@H](CCCNC(=N)N)NC(=O)[C@H](Cc2ccc(O)cc2)NC(=O)[C@H](C(C)C)NC1=O)C(C)C)C(C)C |  | ICR mice, blood | intraperitoneal, 10 mg/kg, day 5 |  | haematocrit | 39.9 ± 0.58% |
| CCN1[C@@H](C(=O)NC23CCC(C(=O)O)(CC2)CC3)[C@H](c2cccc(Cl)c2F)[C@]2(C(=O)Nc3cc(Cl)ccc32)C12CCCCC2 |  | patients with advanced solid tumours | oral, dose not given, all doses |  | Ageusia incidence | 4.8% |
| O=c1ccc2ncc(=O)n3c2n1C[C@H]3CN1CCC(NCc2cc3c(cn2)OCCC3)CC1 |  | healthy human volunteers | oral, dose not given, arithmetic mean, together with: rifampicin |  | renal clearance | 285 mL/min |
| Nc1ncnc2c1ncn2[C@@H]1O[C@@H]2COP(=O)([S-])O[C@@H]3[C@H](O)[C@@H](COP([O-])(=S)O[C@H]2[C@H]1O)O[C@H]3n1cnc2c(N)ncnc21.[Na+].[Na+] (stereo partly drawn) |  | non-tumor-bearing mice, blood | intravenous, 1 mg/kg, toxicity study |  | mean platelet volume | 5.78 ± 0.78 fL |
| Cc1ccc(F)c2cc(C(=O)N[C@@H]3CCC[C@H](N4CC[C@H](N(C)S(C)(=O)=O)C4)C3)[nH]c12 |  | CD1 mouse | intravenous, 1 mg/kg |  | Vz | 14.2 L/kg |
| O=C(Nc1ccccc1)C1CCN(C(=O)Oc2cccnc2)CC1 | Bond-Lader VAS | healthy women | 60 mg | relative to: pre-dose baseline, direction not given | change in Strong-feeble score | 2.4 |
| CC(=O)c1c(C)c2cnc(Nc3ccc(C4CCN(CCS(C)(=O)=O)CC4)cn3)nc2n(C2CCCC2)c1=O |  | human, dose-escalation trial, plasma | oral, 75 mg twice daily, day 21, multiple doses |  | clearance | 1360 mL/min |
| OCc1cc(C(O)CNCCCCCCOCCCCc2ccccc2)ccc1O (stereo not drawn) |  | human | oral |  | absorption rate constant | 1 h⁻¹ |
| CN1CCN(S(=O)(=O)c2cc([N+](=O)[O-])ccc2N(CCOS(C)(=O)=O)CCOS(C)(=O)=O)CC1 |  | NSG mice female, plasma | intraperitoneal, 10 mg/kg, 0.5 h |  | concentration | 2.91 µM |
| COc1ccc(C[C@@H]2NC(=O)[C@H]([C@@H](C)O)NC(=O)[C@@H]3[C@@H]4CCN3C(=O)[C@@H]3Cc5cn(c6ccc(F)cc56)CCCCCCN(Cc5ccc(cc5)CCNC(=O)[C@]5(C)CCCN5C2=O)C(=O)CCC(=O)N[C@@H](C)C(=O)N[C@H](CNC(=O)CCCCC[N+](C)(C)C)C(=O)N[C@@H](Cc2cccc(c2)CNC(=O)CO4)C(=O)N3)cc1 |  | human, plasma | oral, 200 mg |  | t1/2 | 56.4 h |
| COc1ccc2nc3cc(Cl)ccc3c(Nc3cc(CN4CCCC4)c(O)c(CN4CCCC4)c3)c2n1 |  | mouse, blood | oral, 57 mg/kg, tolerability, mean |  | mean corpuscular volume | 39.4 fL |
| CO[C@H]1C[C@@H]2CC[C@@H](C)[C@@](O)(O2)C(=O)C(=O)N2CCCC[C@H]2C(=O)O[C@H]([C@H](C)C[C@@H]2CC[C@@H](OC(=O)NCCOCCOCCOCCOCCOCCOCCOCCOCCC(=O)N3CCc4cc(Cn5nc(-c6ccc7oc(N)nc7c6)c6c(N)ncnc65)ccc4C3)[C@H](OC)C2)C[C@@H](O)[C@H](C)/C=C(\C)[C@@H](O)[C@@H](OC)C(=O)[C@H](C)C[C@H](C)/C=C/C=C/C=C/1C |  | patients with advanced solid tumours | intravenous, dose not given, grade ≥3 |  | Mucositis AE leading to dose reduction | 0% |
| C[C@]1(CO)Cc2ncn(-c3ccc(C#N)c(Cl)c3)c2C(=O)O1 |  | healthy men, serum | dose not given, mean, maximum not exceeded | relative to: baseline | change in serum potassium | ≤ 11% |
| CCCCN1CCC(COC(=O)c2ccc(N)c(O[11CH3])c2)CC1 |  | rhesus monkey, NaF-inhibited plasma | baseline |  | plasma free fraction | 0.442 ± 0.028 |
| CC(C)[C@@H]1NC(=O)CNC(=O)[C@H](CC(N)=O)NC(=O)[C@H](CCCNC(=N)N)NC(=O)[C@H](Cc2ccc(O)cc2)NC(=O)[C@H](C(C)C)NC(=O)[C@@H](NC(=O)[C@@H](NC(=O)[C@H](CC(N)=O)NC(=O)[C@H](Cc2c[nH]c3ccccc23)NC(=O)[C@H](C)NC(=O)[C@H](Cc2ccccc2)NC(=O)CN)C(C)C)CSSC[C@@H](C(=O)N[C@@H](Cc2cnc[nH]2)C(=O)N[C@@H](CCCNC(=N)N)C(=O)N[C@@H](CCCNC(=N)N)C(=O)N[C@@H](C)C(=O)N[C@@H](CC(N)=O)C(N)=O)NC(=O)[C@H](C(C)C)NC(=O)[C@H](CCCNC(=N)N)NC1=O |  | ICR mouse, blood | intramammary, 5 mg/kg, day 5, 3 d dosing |  | haemoglobin | 126 ± 5.88 g/L |

| Structure (SMILES) | assay | test system | conditions | scale | quantity | result |
| --- | --- | --- | --- | --- | --- | --- |
| C[C@@H](NC(=O)N1C(=O)[C@H](Cc2ccnc(N)c2)[C@H]1C(=O)O)C1CCCCC1 |  | healthy Chinese adult volunteers | continuous intravenous infusion, dose not given, 5.0 days, CTCAE 5.0, all doses |  | elevated blood uric acid | 2.5% |
| COc1ccc(-c2c(-c3ccc(C#N)c(F)c3)nc(N3CCC(N)CC3)n(C)c2=O)cc1F | item: Pruritus | human patients | oral, dose not given, grade 3 to 4, dose escalation, NG |  | treatment-related adverse event incidence | 0% |
| O=C(Nc1ccc(Cl)cc1)Nc1ccc(Cl)c(Cl)c1 | ultrafiltration | cow milk whey | 2000 nM nominal in whole milk |  | final permeate concentration | 3.86 nM |
| CCc1ccc(CC/C=C/c2ccc3c(c2)C(=O)CC3)cc1 |  | Sprague-Dawley rat, male | oral, 30 mg/kg/day, 14 days |  | Fibrinogen | 3.1 g/L |
| C[C@H]1COCCN1c1nc(NCc2cccnc2C(F)(F)F)c2cccnc2n1 |  | anaesthetized rat, plasma | intravenous, 30 mg/kg, 5 min |  | plasma concentration | 155 µg/mL |
| CC(C)C(=O)OC[C@H]1O[C@@H](n2ccc(NO)nc2=O)[C@H](O)[C@@H]1O |  | rat amniotic fluid dialysate | 5 ng/mL, 6 h, room temperature, low concentration, together with: NHC 25 ng/mL |  | bench-top stability | 102 ± 1.9% |
| CN1CC[C@@H](c2c(O)cc(O)c3c(=O)cc(-c4ccc(C(F)(F)F)cc4Cl)oc23)[C@@H]1CO | item: febrile neutropenia | AML | oral, 200 mg, grade 3 to 4, intermittent dosing |  | patients with adverse event | 20% |
| CC1(C)C(C=C(Cl)Cl)C1C(=O)OC(C#N)c1ccc(F)c(Oc2ccccc2)c1 (stereo not drawn) | item: CYP2C9 | human, age 5 years, recombinant human CYP2C9 | 0.1 µM |  | enzyme contribution to clearance | 2.01% |
| Cc1cc(C)c(CNC(=O)c2cc(Cl)c3c(c2C)O[C@@](C)([C@H]2CC[C@H](N(C)C)CC2)O3)c(=O)[nH]1 |  | relapsed/refractory NHL patients | dose not given, trial, safety set, treatment-related TEAE grade 5 |  | incidence of mental status changes | 0% |
| O=C(c1ccc(F)c(F)c1Nc1ccc(I)cc1F)N1CC(O)([C@@H]2CCCCN2)C1 |  | human patients | oral, 1 mg/kg, age ≥18 years |  | adverse events of special interest | 100% |
| [O-][S+]1CCc2nc(N3CCC(c4ncc(Cl)cn4)CC3)nc(NC3(CO)CCC3)c21 (stereo not drawn) | phase I trial | healthy male volunteers, blood | oral, 6 mg twice daily, after last treatment |  | creatine kinase | 309 U/L |
| COc1ncccc1-c1cnn2ccc(N3CCN(C(=O)OC(C)C)CC3)nc12 |  | mouse formalin model, plasma | oral, 10 mg/kg, 60 min |  | free concentration | 0.09 µM |
| O=S(=O)(Nc1ccccc1)c1ccc(NC(=S)Nc2ccccc2)cc1 | item: AST | male mouse, blood | oral, 80 mg/kg daily, 14 days |  | serum enzyme activity | 596 U/L |
| CCCCCCCCCCCCCCCC(=O)N[C@@H](CCC(=O)NCCCC[C@H](NC(=O)[C@H](CC(=O)O)NC(=O)[C@H](CO)NC(=O)[C@@H](NC(=O)[C@H](Cc1ccccc1)NC(=O)[C@@H](NC(=O)CNC(=O)[C@H](CCC(N)=O)NC(=O)[C@H](CO)NC(=O)[C@@H](N)Cc1c[nH]cn1)[C@@H](C)O)[C@@H](C)O)C(=O)N[C@@H](CO)C(=O)N[C@@H](CCC(=O)O)C(=O)N[C@@H](Cc1ccc(O)cc1)C(=O)N[C@@H](CC(C)C)C(=O)N[C@@H](CC(=O)O)C(=O)N[C@@H](CO)C(=O)N[C@@H](CCC(=O)O)C(=O)N[C@@H](CCCNC(=N)N)C(=O)N[C@@H](C)C(=O)N[C@@H](CCCNC(=N)N)C(=O)N[C@@H](CC(=O)O)C(=O)N[C@@H](Cc1ccccc1)C(=O)N[C@H](C(=O)N[C@@H](C)C(=O)N[C@@H](Cc1c[nH]c2ccccc12)C(=O)N[C@@H](CC(C)C)C(=O)N[C@@H](CCC(=O)O)C(=O)N[C@@H](C)C(=O)NCC(=O)NCC(=O)O)C(C)C)C(=O)O |  | human, CrCl ≥45 to <60 mL/min | sc, 100 µg single dose |  | injection site bruising | 14.3% |
| C/C(=N\C#N)N(C)Cc1ccc(Cl)nc1 |  | soil | 0.12 nominal, 0 days, Folsomia candida soil test |  | recovery | 46% |
| N[C@@H]1c2ccccc2OC12CCN(c1cnc3c(N4CCCc5ncccc54)n[nH]c3n1)CC2 |  | patients advanced metastatic solid tumours | oral, 60 mg once daily, pooled cohort |  | peripheral oedema TEAE incidence | 56% |
| C[C@@H]1OC(=O)NN=C1c1ccc(-c2ccc(F)cc2)c(C(F)(F)F)c1 | phase I trial, item: Anaemia worst grade 3 | human patients | 5 mg once daily |  | patients with adverse event | 0% |
| O=C(O)CCCOc1ccc(F)cc1-c1cc(-c2ccccc2C(F)(F)F)n(-c2ccccc2)n1 | item: ALT | Crl:CD(SD) rats, female, serum | iv, 25 µg/kg, 14 days |  | serum enzyme activity | 26.6 ± 3.5 U/L |
| C[C@@H]1NC(=O)[C@H](CCCCNC(=O)CO/N=C/C(=O)NCCCC[C@@H]2NC(=O)[C@@H](Cc3ccccc3)NC(=O)[C@H](CC(=O)O)NC(=O)CNC(=O)[C@H](CCCNC(=N)N)NC2=O)NC(=O)CNC(=O)[C@@H]2CCCN2C(=O)[C@H](CCCCNC(=O)CO/N=C/C(=O)NCCCC[C@@H]2NC(=O)[C@@H](Cc3ccccc3)NC(=O)[C@H](CC(=O)O)NC(=O)CNC(=O)[C@H](CCCNC(=N)N)NC2=O)NC(=O)[C@H](CCCCNC(=O)CN2CCCNCCNCCCNCC2)NC(=O)[C@H](CCCCNC(=O)CO/N=C/C(=O)NCCCC[C@@H]2NC(=O)[C@@H](Cc3ccccc3)NC(=O)[C@H](CC(=O)O)NC(=O)CNC(=O)[C@H](CCCNC(=N)N)NC2=O)NC(=O)CNC(=O)[C@@H]2CCCN2C(=O)[C@H](CCCCNC(=O)CO/N=C/C(=O)NCCCC[C@@H]2NC(=O)[C@@H](Cc3ccccc3)NC(=O)[C@H](CC(=O)O)NC(=O)CNC(=O)[C@H](CCCNC(=N)N)NC2=O)NC1=O [copper-64 labelled] |  | normal mice, kidney | intravenous, 0.74 MBq, 24 h post-injection |  | tissue uptake | 14.6 ± 0.97 %ID/g |
